Measured values gathered from unrelated publications.
Lines come from different studies, so protocols differ. ± gives the spread as reported.

| Compound | cell line | test | test system | conditions | EC50 [µM] |
| --- | --- | --- | --- | --- | --- |
| CN1CC[C@@H](COc2cnc(C#N)cc2-c2ccn3nc(NC(=O)C4CC4)cc3c2)C1 | dendritic cells, mouse, bone marrow-derived | cytokine release increase, refers to: IL-10 |  | with: LPS | 0.67 |
| C=C(NC(=O)c1csc(-c2ccc(NC(=O)CCCCCBr)cc2)n1)C(=O)NC(=C)C(=O)OC | ES-2 | cell growth or viability |  |  | 2.5 |
| CC(C)(C)c1cc(-c2ccc3cc4ccccc4nc3n2)nc(-c2ccc3cc4ccccc4nc3n2)c1.Cc1ccncc1.[Cl-].[Cl-].[Ru+2].c1ccc2cc3nc4c5cccnc5c5ncccc5c4nc3cc2c1 | A-375 | resazurin |  | with: light 733 nm, 9 mW, 100 J/cm2 | 13.9 |
| [Cl-].[Cl-].[Ru+2].c1ccc(-c2ccccn2)nc1.c1ccc(-c2ccccn2)nc1.c1ccc2cc3nc4c5cccnc5c5ncccc5c4nc3cc2c1 | SK-MEL-28 | cell growth or viability, resazurin |  | dark | 114 |
| CC(C)(C)c1cc(-c2ccc3cccnc3n2)nc(-c2ccc3cccnc3n2)c1.[Cl-].[Cl-].[Ru+2].c1cnc2c(c1)ccc1cccnc12 | A-375 | resazurin |  | with: light 733 nm, 9 mW, 100 J/cm2 | 214 ± 6 |
| Oc1cccc(-c2cccc(O)n2)n1.[Cl-].[Cl-].[Ru+2].c1ccc(-c2ccnc3c2ccc2c(-c4ccccc4)ccnc23)cc1.c1ccc(-c2ccnc3c2ccc2c(-c4ccccc4)ccnc23)cc1 | MCF-10A | CCK-8 viability |  | dark | 3.9 |
| CCCNC(=O)[C@H]1O[C@@H]1C(=O)N[C@H](C(=O)N1CCC[C@H]1C(=O)OCC1=C2C(C)=CC(C)=[N+]2[B-](C)(C)n2c(C)cc(C)c21)[C@@H](C)CC | MCF-10A | cell viability, MTT |  | concentration not given, 72 h, irradiated 15 min up to 470 nm | 3.5 ± 1.3 |
| [Cl-].[Cl-].[Ru+2].c1cc(-c2ccc3cccnc3n2)nc(-c2ccc3cccnc3n2)c1.c1ccc2cc3nc4c5cccnc5c5ncccc5c4nc3cc2c1 | A-375 | cytotoxicity, resazurin |  | dark | 68.1 |
| CC[C@H]1CN([C@@H](CC)c2ccc(C(F)(F)F)cc2)[C@H](CC)CN1c1nc(=O)n(C)c2ccc(C#N)nc12 | CD8+ T cells | phospho-ERK amplification, flow cytometry | human whole blood | with: suboptimal anti-CD3 | 0.012 |
| CC(C)C[C@H](NC(=O)[C@H](Cc1ccccc1)NC(=O)[C@H](CCCNC(=N)N)NC(=O)[C@H](C)N)B(O)O | MM1.S cells | cell viability, CellTiter-Glo |  | single agent | 0.181 |

For quick reference, copied from above:
| Compound | cell line | test | test system | conditions | EC50 [µM] |
| --- | --- | --- | --- | --- | --- |
| CC[C@H]1CN([C@@H](CC)c2ccc(C(F)(F)F)cc2)[C@H](CC)CN1c1nc(=O)n(C)c2ccc(C#N)nc12 | CD8+ T cells | phospho-ERK amplification, flow cytometry | human whole blood | with: suboptimal anti-CD3 | 0.012 |
| [Cl-].[Cl-].[Ru+2].c1ccc(-c2ccccn2)nc1.c1ccc(-c2ccccn2)nc1.c1ccc2cc3nc4c5cccnc5c5ncccc5c4nc3cc2c1 | SK-MEL-28 | cell growth or viability, resazurin |  | dark | 114 |
